Literature values as cited in several papers.
Protocols differ between the studies behind these lines.

With `Nc1c(C(=O)O)ncn1C1OC(COP(=O)(O)O)C(O)C1O` (stereo not shown) the Km was 23 µM (Escherichia coli PurE; substrate).
`N=C(N)Nc1ccc(OC(=O)c2ccc(NC(=N)N)cc2)cc1` has an inhibition of 98.1% (dengue virus NS2B-NS3 protease; 50 µM, added: substrate 50 µM).
`O=C(OCC[18F])C1C2CCC(CC1c1ccc(/C=C\I)cc1)N2` (stereo not shown) — result for “time of increasing uptake”: 85 to 105 min (SERT; microPET; anaesthetised animal, SERT-rich brain regions).
`CSC[C@H]1CN(Cc2c[nH]c3c(N)ncnc23)C[C@@H]1O` gave a Ki of 2 pM (MTA/SAH nucleosidase Escherichia coli; inhibitor).
For `[2H]C([2H])([2H])C([2H])([2H])C([2H])([2H])OC(C(=O)OC1CCNCC1)(c1ccccc1)c1ccccc1`, the KI was 1.02 µg/mL (CYP3A, human; time-dependent inhibitor; human liver microsomes; added: midazolam).
The kon of `CC(=O)N[C@H]1[C@@H](OC[C@H](NC(=O)CNC(=O)[C@@H]2CCCN2C(=O)[C@H](C)NC(=O)[C@@H]2CCCN2C(=O)[C@@H](N)CCCNC(=N)N)C(=O)N[C@H](C(=O)N[C@@H](C)C(=O)N2CCC[C@H]2C(=O)N2CCC[C@H]2C(=O)N[C@@H](C)C(=O)N[C@@H](Cc2c[nH]cn2)C(=O)NCC(=O)O)[C@@H](C)O)O[C@H](CO)[C@H](O)[C@@H]1O` is reported as 33500 M⁻¹ s⁻¹ (16 A monoclonal antibody; SPR).
For `CCCCCCCCCCCCCC(=O)N[C@@H](CO)C(=O)N[C@H](C(=O)N[C@@H](Cc1ccc(O)cc1)C(=O)N[C@@H](CCCNC(=N)N)C(=O)N[C@@H](CCCNC(=N)N)C(=O)NCC(=O)N[C@@H](C)C(=O)N[C@@H](CCCNC(=N)N)C(=O)N[C@@H](CCCNC(=N)N)C(=O)N[C@@H](Cc1c[nH]c2ccccc12)C(=O)N[C@@H](CCCNC(=N)N)C(=O)N[C@@H](CCCCN)C(=O)N[C@@H](CC(C)C)C(=O)O)[C@@H](C)CC`, inhibition read “no inhibition” (PKMζ-RFP fusion; transfected cultured cells; concentration not given).
For `Cc1ncsc1-c1ccc(CNC(=O)[C@@H]2C[C@@H](O)CN2C(=O)[C@@H](NC(=O)CCCCCCCCCC(=O)NCCN2CCN(Cc3cccc(-c4ccc(N5CCN(C)CC5)c(NC(=O)c5c[nH]c(=O)cc5C(F)(F)F)c4)c3)CC2)C(C)(C)C)cc1`, the Dmax was 71% (WDR5; protein degradation, degrader; MV4-11).
`CSCC[C@@H]1NC(=O)[C@@H]2CSSC[C@H](NC(=O)[C@H](CO)NC(=O)[C@H](C)N)C(=O)N[C@@H](CCCNC(=N)N)C(=O)N[C@@H]([C@@H](C)O)C(=O)N3CCC[C@H]3C(=O)N[C@@H](CCCCN)C(=O)N[C@@H](CC(=O)O)C(=O)N[C@H]3CSSC[C@H](NC(=O)[C@H](CCCCN)NC(=O)[C@H](CCCNC(=N)N)NC(=O)[C@H](CC(N)=O)NC1=O)C(=O)N[C@@H](CCCCN)C(=O)N[C@H]1CSSC[C@H](NC(=O)[C@@H]4CCCN4C(=O)[C@H](CC(=O)O)NC(=O)[C@H](C)NC3=O)C(=O)N[C@@H](C)C(=O)N[C@@H](CCCCN)C(=O)N[C@@H](CCC(=O)O)C(=O)N[C@@H]([C@@H](C)O)C(=O)NCC(=O)N[C@@H](CSSC[C@@H](C(N)=O)NC(=O)[C@H](CCCNC(=N)N)NC(=O)[C@H](CC(N)=O)NC1=O)C(=O)N1CCC[C@H]1C(=O)N[C@@H](Cc1ccc(O)cc1)C(=O)NCC(=O)N[C@@H](CCCCN)C(=O)N2` has a selectivity ratio of 2000 fold (Kv1.3 potassium channel; relative to: Kv1.3 over Kv1.1).
For `CN(C)c1ccc(/C=C/C(=O)c2ccc(OC(=O)N3CCCC3)cc2O)cc1`, the inhibition was 79.7% (amyloid beta 1-42; Cu2+-induced aggregation; 25 µM).
The inhibition of `N=C(Nc1ccc(OCCCCCOc2ccc(NC(=N)c3ccccc3)cc2)cc1)c1ccccc1` is reported as 68% (Kir2.1; whole-cell current, manual patch clamp; 3 µM, at -110 mV).
With `COc1cc(O)c2c(c1)/C=C/C[C@H](O)[C@H](O)C(=O)/C=C\C[C@H](C)OC2=O` the remaining binding was 100% (STK16; concentration not given; relative to: control).
`CC(C)[C@H](NC(=O)[C@H](CO)NC(=O)[C@@H](N)CC(=O)O)C(=O)N[C@H]1CSC(=O)[C@H](Cc2ccccc2)NC(=O)[C@H](Cc2ccc(O)cc2)NC(=O)[C@H](CO)NC(=O)[C@H](C)NC1=O` — result for activity: “inhibited” (AgrC-III Staphylococcus epidermidis; agr signalling; concentration not given).

Some of these lines once more:
For `[2H]C([2H])([2H])C([2H])([2H])C([2H])([2H])OC(C(=O)OC1CCNCC1)(c1ccccc1)c1ccccc1`, the KI was 1.02 µg/mL (CYP3A, human; time-dependent inhibitor; human liver microsomes; added: midazolam).
`CSC[C@H]1CN(Cc2c[nH]c3c(N)ncnc23)C[C@@H]1O` gave a Ki of 2 pM (MTA/SAH nucleosidase Escherichia coli; inhibitor).
